Results collected from several papers.
Compare with care: the assays were run in different laboratories. “And” joins repeats or separate records; there may be more than shown. ± gives the spread as reported.
prp N63Q: Ribosomal processing cysteine protease Prp (prp, Staphylococcus aureus, UniProt Q2FXS9, N63Q)
UniProt Q09013, sequence (whole entry, looked up): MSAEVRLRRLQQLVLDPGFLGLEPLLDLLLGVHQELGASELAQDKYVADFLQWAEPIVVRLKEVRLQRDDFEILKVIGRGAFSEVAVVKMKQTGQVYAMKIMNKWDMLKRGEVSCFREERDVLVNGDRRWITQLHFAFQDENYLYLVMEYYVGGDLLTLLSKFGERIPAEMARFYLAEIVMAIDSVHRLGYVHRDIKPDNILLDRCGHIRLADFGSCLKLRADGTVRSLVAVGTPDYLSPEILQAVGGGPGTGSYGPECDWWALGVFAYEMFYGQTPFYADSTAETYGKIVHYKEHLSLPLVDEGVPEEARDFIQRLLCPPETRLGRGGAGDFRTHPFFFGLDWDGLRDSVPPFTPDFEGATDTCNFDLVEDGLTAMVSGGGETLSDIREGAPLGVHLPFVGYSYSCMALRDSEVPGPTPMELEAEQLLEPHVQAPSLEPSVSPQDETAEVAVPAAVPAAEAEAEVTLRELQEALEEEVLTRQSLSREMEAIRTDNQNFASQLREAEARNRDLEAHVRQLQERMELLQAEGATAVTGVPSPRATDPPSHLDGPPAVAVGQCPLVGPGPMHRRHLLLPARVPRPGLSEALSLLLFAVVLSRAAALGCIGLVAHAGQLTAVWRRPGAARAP
UniProt Q8TDC3, sequence (whole entry, looked up): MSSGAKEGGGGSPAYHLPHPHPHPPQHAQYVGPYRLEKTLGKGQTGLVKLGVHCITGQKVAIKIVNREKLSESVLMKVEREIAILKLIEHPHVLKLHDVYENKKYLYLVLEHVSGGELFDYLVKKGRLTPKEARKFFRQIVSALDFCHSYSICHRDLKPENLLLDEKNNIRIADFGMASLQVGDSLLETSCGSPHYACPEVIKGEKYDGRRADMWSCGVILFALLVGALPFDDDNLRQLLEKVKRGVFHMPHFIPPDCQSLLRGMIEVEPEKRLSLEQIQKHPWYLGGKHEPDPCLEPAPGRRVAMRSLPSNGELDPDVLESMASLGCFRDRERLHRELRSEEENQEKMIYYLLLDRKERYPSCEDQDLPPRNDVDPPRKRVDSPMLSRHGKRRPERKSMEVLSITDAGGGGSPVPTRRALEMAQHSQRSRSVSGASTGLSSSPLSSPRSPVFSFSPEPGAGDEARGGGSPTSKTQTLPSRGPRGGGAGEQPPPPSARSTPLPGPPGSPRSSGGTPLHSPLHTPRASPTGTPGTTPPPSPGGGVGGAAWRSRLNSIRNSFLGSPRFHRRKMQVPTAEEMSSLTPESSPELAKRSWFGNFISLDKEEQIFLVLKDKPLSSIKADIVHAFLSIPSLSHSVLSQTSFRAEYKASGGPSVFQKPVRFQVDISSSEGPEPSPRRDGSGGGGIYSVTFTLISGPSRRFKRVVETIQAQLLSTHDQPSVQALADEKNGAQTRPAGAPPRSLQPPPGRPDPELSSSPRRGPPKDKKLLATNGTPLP
UniProt P51451, sequence (whole entry, looked up): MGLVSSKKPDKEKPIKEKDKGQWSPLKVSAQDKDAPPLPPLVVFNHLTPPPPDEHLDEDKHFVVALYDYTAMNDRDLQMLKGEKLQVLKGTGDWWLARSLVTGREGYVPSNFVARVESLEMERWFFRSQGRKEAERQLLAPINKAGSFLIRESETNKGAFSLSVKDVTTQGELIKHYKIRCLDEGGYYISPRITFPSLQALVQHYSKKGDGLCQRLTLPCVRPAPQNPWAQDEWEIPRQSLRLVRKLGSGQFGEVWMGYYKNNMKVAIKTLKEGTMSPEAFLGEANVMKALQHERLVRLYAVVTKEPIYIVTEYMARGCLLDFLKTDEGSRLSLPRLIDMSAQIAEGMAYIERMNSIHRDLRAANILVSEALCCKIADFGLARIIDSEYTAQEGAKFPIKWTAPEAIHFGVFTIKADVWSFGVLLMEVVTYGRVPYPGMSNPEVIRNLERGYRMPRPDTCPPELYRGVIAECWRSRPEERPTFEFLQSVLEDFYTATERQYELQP
UniProt P97612, sequence (whole entry, looked up): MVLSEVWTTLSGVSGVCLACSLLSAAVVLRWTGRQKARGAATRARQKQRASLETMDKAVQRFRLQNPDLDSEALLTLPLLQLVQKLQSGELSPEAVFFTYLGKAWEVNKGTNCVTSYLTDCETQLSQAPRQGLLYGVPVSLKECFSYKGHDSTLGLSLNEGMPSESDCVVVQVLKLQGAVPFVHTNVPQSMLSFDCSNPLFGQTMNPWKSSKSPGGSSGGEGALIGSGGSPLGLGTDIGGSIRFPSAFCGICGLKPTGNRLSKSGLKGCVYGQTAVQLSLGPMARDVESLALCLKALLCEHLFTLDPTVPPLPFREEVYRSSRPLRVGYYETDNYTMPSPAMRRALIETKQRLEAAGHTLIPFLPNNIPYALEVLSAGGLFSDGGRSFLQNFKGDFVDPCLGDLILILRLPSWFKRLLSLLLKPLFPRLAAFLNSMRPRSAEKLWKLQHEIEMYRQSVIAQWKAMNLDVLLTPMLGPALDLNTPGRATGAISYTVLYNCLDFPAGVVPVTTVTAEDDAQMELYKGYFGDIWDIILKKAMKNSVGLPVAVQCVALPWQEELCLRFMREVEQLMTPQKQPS
UniProt Q9NS75, sequence (whole entry, looked up): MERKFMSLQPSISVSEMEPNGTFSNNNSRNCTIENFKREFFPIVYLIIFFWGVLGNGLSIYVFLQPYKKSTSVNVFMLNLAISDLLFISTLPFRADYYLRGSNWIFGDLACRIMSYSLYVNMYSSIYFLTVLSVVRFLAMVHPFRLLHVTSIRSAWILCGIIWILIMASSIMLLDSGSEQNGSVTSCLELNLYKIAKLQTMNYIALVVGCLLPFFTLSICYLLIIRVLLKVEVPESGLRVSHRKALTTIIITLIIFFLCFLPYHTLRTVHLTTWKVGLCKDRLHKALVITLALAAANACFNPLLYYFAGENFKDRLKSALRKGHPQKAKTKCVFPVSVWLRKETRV
UniProt Q96PF2, sequence (whole entry, looked up): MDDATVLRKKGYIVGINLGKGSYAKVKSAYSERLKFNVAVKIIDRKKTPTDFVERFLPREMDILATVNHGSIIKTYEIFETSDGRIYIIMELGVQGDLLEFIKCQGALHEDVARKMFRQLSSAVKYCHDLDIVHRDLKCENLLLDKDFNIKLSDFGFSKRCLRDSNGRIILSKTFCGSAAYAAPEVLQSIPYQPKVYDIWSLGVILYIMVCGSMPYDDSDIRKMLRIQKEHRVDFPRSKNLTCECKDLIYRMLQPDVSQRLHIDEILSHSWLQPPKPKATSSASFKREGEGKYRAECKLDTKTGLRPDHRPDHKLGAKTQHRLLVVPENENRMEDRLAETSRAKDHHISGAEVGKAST

Structure (SMILES) | target or system | assay | test system | conditions | measurement | value
CC(=O)Oc1ccccc1C(=O)O | prp N63Q | enzyme activity, inhibitor |  | 10 µM, prp 21.4 nM, together with: FITC peptide substrate 0.5 µM | inhibition | 10.6 ± 6.3%
COc1cc(Nc2ncc(F)c(Nc3ccc4c(n3)NC(=O)C(C)(C)O4)n2)cc(OC)c1OC | Serine/threonine-protein kinase BRSK1 (BRSK1, Homo sapiens, UniProt Q8TDC3) | KINOMEscan |  | 10 µM | inhibition | 0%
O=C(Nc1cnccc1Cl)N1CCN(Cc2ccc3c(c2)OC(F)(F)O3)CC1 | Testis-specific serine/threonine-protein kinase 2 (TSSK2, Homo sapiens, UniProt Q96PF2) | kinase activity, inhibitor |  | 10 µM, human, together with: CHKtide | inhibition | 14%
COc1cc2c(Oc3ccc4[nH]c(C)cc4c3F)ccnc2cc1OCC1(N)CC1 |  |  | paediatric recurrent refractory sarcoma | 10 mg | Epistaxis incidence | 25%
CC(=O)NC[C@H]1[C@H](O)[C@H](O)[C@@H]2[C@H](O)C[C@@H](CO)N21 | β-N-acetylglucosaminidase | enzyme activity, inhibitor, colorimetric | Canavalia ensiformis | 5.15 nM, together with: p-nitrophenyl GlcNAc substrate | inhibition | 86.9% and 88.2%
O=C(Nc1cccnn1)N1CCC(=Cc2cccc(Oc3ccc(C(F)(F)F)cn3)c2)CC1 | Myotonin-protein kinase (DMPK, Homo sapiens, UniProt Q09013) | kinase activity, inhibitor |  | 50 µM, together with: Axltide substrate | inhibition | -1%
COc1ccc(N2C(=O)N(c3c(C)cccc3Cl)Cc3cnc(Nc4ccc(C5CCN(C)CC5)cc4OC)nc32)nc1 | Tyrosine-protein kinase Blk (BLK, Homo sapiens, UniProt P51451) | kinase activity |  | 0.5 µM | inhibition | 91%
COC[C@H](NC(=O)c1cnc(C)s1)C(=O)N[C@@H](COC)C(=O)N[C@@H](Cc1ccccc1)C(=O)[C@@]1(C)CO1 | prp N63Q | enzyme activity, inhibitor |  | 10 µM, prp 21.4 nM, together with: FITC peptide substrate 0.5 µM | inhibition | 44.8 ± 4.9%
CN1CCN(c2cc(-c3ccncc3)c(-c3ccc4ccccc4c3)nn2)CC1 | Cysteinyl leukotriene receptor 2 (CYSLTR2, Homo sapiens, UniProt Q9NS75) | antagonist, FLIPR |  | 10 µM | inhibition | -20.1%
CN(C(=O)n1cnc(-c2ccc[n+]([O-])c2)c1)C1CCCCC1 | Fatty-acid amide hydrolase 1 (Faah, Rattus norvegicus, UniProt P97612) | probe labelling, inhibitor, competitive ABPP | rat brain soluble fraction | 10 µM, together with: azido-FP probe | inhibition | 30.8%
Cc1cc(C(=O)CN2CCCC2)c(C)n1-c1ccc(F)cc1 | prp N63Q | enzyme activity |  | 10 µM, 21.4 nM enzyme dimer, together with: 0.5 µM FITC-labelled peptide substrate | inhibition | 30.6 ± 6%

For quick reference, copied from above:
Structure (SMILES) | target or system | assay | test system | conditions | measurement | value
COc1cc2c(Oc3ccc4[nH]c(C)cc4c3F)ccnc2cc1OCC1(N)CC1 |  |  | paediatric recurrent refractory sarcoma | 10 mg | Epistaxis incidence | 25%
CC(=O)NC[C@H]1[C@H](O)[C@H](O)[C@@H]2[C@H](O)C[C@@H](CO)N21 | β-N-acetylglucosaminidase | enzyme activity, inhibitor, colorimetric | Canavalia ensiformis | 5.15 nM, together with: p-nitrophenyl GlcNAc substrate | inhibition | 86.9% and 88.2%
